Experimental data from different studies.
A part holds a random share of what one study measured. Substitutions count along the parent as printed.

Block 1
Target: Max dimerization protein 1, bHLH-zipper, MAX partner unstated (MXD1, Homo sapiens, UniProt Q05195, residues 56-136)
Technique: protein-binding microarray
Form: double-stranded DNA, one strand shown
Medium: in vitro
Tested at: not given
Notes: k-mer, scored over probes, only values ≥0.25
Reading: higher = stronger binding
Target sequence (chain): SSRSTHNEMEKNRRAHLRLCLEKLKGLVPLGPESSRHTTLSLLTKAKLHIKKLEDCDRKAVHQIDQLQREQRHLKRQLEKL
| Oligonucleotide | E-score |
| --- | --- |
| AACGTGAG | 0.266 |
| AGGGGTGG | 0.263 |
| ATTGCACG | 0.286 |
| CCCGCCCC | 0.392 |
| ACGTTCCA | 0.274 |
| ACGCGGGG | 0.35 |
| ATGTGCTG | 0.288 |
| GTGTGCGA | 0.281 |

Block 2
Target: MAFG, bZIP domain (human)
Technique: DHFR protein complementation
Medium: yeast
Notes: single substitutions, most at no-binding floor
Relative to: wild-type JUN-FOS pair
Reading: higher = stronger binding
Parent: JUN, bZIP domain (human); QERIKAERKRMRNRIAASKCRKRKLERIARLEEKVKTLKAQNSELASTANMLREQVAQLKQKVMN; partner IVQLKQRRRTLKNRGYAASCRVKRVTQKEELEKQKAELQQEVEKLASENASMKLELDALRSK
| Change | binding fitness [natural log] |
| --- | --- |
| L38I | -1.51 |
| A57R | -1.19 |
| R30E | -1.33 |
| A57W | -1.43 |
| A40V | -1.47 |
| N42G | -1.44 |
| S47N | -1.44 |
| L45T | -1.45 |

Block 3
Target: Fragile X messenger ribonucleoprotein 1, C-terminal low-complexity region (Fmr1, Mus musculus, UniProt P35922)
Technique: RNA Bind-n-Seq
Form: RNA
Medium: in vitro
Tested at: 200 nM
Notes: whole 134-nt RNA, ends assumed
Together with: 150 mM LiCl
Relative to: input library
Reading: higher = stronger binding
Library: 7-deaza-guanosine replaces G
| Oligonucleotide | log2 enrichment |
| --- | --- |
| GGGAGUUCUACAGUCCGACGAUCCUCAACGUUGACAGUAAUGAACAAGGCUCCUAUGUAGUGGCCAUGGAAACCUUUACCAACUUAGGACCCAUUGUCGAUAUGUGCGUGGUGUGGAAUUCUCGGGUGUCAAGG | -2.01 |
| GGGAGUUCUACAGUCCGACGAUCCUCAAGUCCUGUGCUACACAUCGUAUGUACCGAAUCGGGAAGGGAAGGGAAGGGAAAGUAUUAUGUUACGCCGUUCGGAUCUGCACUUCCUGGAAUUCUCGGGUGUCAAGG | -0.0627 |
| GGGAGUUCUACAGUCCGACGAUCUCAAGUCCUGUGCUACACAUCGUAUGUACCGAAUCGGGGAGGGGAGGGGUGGGGAAAGUAUUAUGUUACGCCGUUCGGAUCUGCACUUCCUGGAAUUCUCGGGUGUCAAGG | -0.0189 |
| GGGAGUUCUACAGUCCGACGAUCCCUGUGCUACACAUCGUAUGUACCGAAUCGGGCCCCCCCGGCCCCCCCGGGGCCCCCCCGGAAAGUAUUAUGUUACGCCGUUCGGAUCUGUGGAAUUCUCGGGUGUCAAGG | 0.0196 |
| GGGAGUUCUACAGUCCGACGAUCAAGUCCUGUGCUACACAUCGUAUGUACCGAAUCGGGCCCCCGGCCCCCGGCCCCCGGAAAGUAUUAUGUUACGCCGUUCGGAUCUGCACUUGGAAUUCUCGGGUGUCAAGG | -0.0314 |
| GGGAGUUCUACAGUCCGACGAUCUCCUGUGCUACACAUCGUAUGUACCGAAUCGGGGUGGGGAAAAAAAGGGGAAAAAGGGGAAAGUAUUAUGUUACGCCGUUCGGAUCUGCAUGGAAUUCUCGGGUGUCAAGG | -0.944 |
| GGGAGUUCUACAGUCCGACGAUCUCCUGUGCUACACAUCGUAUGUACCGAAUCGGGGCCCCCCGGGGCCCCCCGGCCCCCCGGAAAGUAUUAUGUUACGCCGUUCGGAUCUGCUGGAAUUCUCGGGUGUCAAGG | -0.964 |
| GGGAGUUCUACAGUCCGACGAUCAAGUCCUGUGCUACACAUCGUAUGUACCGAAUCGGUUUUUUUGGUGGUUUUUUUGGAAAGUAUUAUGUUACGCCGUUCGGAUCUGCACUUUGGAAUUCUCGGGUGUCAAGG | -1.65 |

Single results of other studies
Parent: viral docking peptide; KKAKRRLFTISDS; partner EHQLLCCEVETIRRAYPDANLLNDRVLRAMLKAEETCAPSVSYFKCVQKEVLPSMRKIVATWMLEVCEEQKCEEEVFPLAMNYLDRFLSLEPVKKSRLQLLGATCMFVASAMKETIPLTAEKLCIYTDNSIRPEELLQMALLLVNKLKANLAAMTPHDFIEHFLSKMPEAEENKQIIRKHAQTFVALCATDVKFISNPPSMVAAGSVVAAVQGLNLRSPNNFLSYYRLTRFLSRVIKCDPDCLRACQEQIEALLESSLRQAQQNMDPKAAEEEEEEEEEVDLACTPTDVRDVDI
| Change | target | assay | test system | conditions | scale | quantity | value |
| --- | --- | --- | --- | --- | --- | --- | --- |
| KKAKRRLFTASDS [I10A] | CCND1, cyclin fold, Cln2 fusion (human) | yeast growth competition, sequencing | yeast | weak parent motif | relative to: not given, higher = stronger binding | normalised enrichment score | 0.213 |
